Measurements of several laboratories.
Numbers after ± are the reported error. Values after ≈ are worked out from the molar mass of the structure shown.

With `CC(C)CC(=O)OC[C@H]1O[C@@](C#N)(c2ccc3c(N)ncnn23)[C@H](O)[C@@H]1O` the recovery was 103% (plasma protein binding; monkey plasma; 9 µM, time not given).
For `CCc1ccc(CC/C=C/c2ccc3c(c2)C(=O)CC3)cc1`, the Platelet percentage was 1.06% (Sprague-Dawley rat, female; oral, 450 mg/kg/day, 14 days).
For `CO[C@H]1C[C@@H]2CC[C@@H](C)[C@@](O)(O2)C(=O)C(=O)N2CCCC[C@H]2C(=O)O[C@H]([C@H](C)C[C@@H]2CC[C@@H](OC(=O)NCCOCCOCCOCCOCCOCCOCCOCCOCCC(=O)N3CCc4cc(Cn5nc(-c6ccc7oc(N)nc7c6)c6c(N)ncnc65)ccc4C3)[C@H](OC)C2)C[C@@H](O)[C@H](C)/C=C(\C)[C@@H](O)[C@@H](OC)C(=O)[C@H](C)C[C@H](C)/C=C/C=C/C=C/1C`, the TRAE incidence was 0% (phase 1 dose escalation, measured: headache; advanced solid tumour patients; intravenous, 10 mg weekly, grade ≥3).
`COC[C@@H](CC(C)C)NC(=O)c1ccc(C)c(C)c1` — result for “PCE to total erythrocyte ratio”: 0.522 (Hsd:ICR (CD-1) mouse, female, bone marrow; oral, 500 mg/kg, 24 h).
`COc1ncccc1-c1cnn2ccc(N3CCN(C(=O)OC(C)C)CC3)nc12`: “free drug concentration” 0.062 µM (rat, thermal hyperalgesia model, plasma; oral, 30 mg/kg, 180 min).
For `CN1CC[C@@H](c2c(O)cc(O)c3c(=O)cc(-c4ccc(C(F)(F)F)cc4Cl)oc23)[C@@H]1CO`, “patients with adverse event” read 12.5% (measured: Constipation; B-cell malignancies or AML; oral, 100 mg, continuous dosing).
With `C[C@@H]1NC(=O)[C@H](CCCCNC(=O)CO/N=C/C(=O)NCCCC[C@@H]2NC(=O)[C@@H](Cc3ccccc3)NC(=O)[C@H](CC(=O)O)NC(=O)CNC(=O)[C@H](CCCNC(=N)N)NC2=O)NC(=O)CNC(=O)[C@@H]2CCCN2C(=O)[C@H](CCCCNC(=O)CO/N=C/C(=O)NCCCC[C@@H]2NC(=O)[C@@H](Cc3ccccc3)NC(=O)[C@H](CC(=O)O)NC(=O)CNC(=O)[C@H](CCCNC(=N)N)NC2=O)NC(=O)[C@H](CCCCNC(=O)[C@H](CCCCN)NC(=O)[C@H](Cc2ccccc2)NC(=O)CNC(=O)CN2CCCNCCNCCCNCC2)NC(=O)[C@H](CCCCNC(=O)CO/N=C/C(=O)NCCCC[C@@H]2NC(=O)[C@@H](Cc3ccccc3)NC(=O)[C@H](CC(=O)O)NC(=O)CNC(=O)[C@H](CCCNC(=N)N)NC2=O)NC(=O)CNC(=O)[C@@H]2CCCN2C(=O)[C@H](CCCCNC(=O)CO/N=C/C(=O)NCCCC[C@@H]2NC(=O)[C@@H](Cc3ccccc3)NC(=O)[C@H](CC(=O)O)NC(=O)CNC(=O)[C@H](CCCNC(=N)N)NC2=O)NC1=O` [copper-64 labelled] the tissue uptake was 35 ± 3.07 %ID/g (biodistribution after PET; mouse, U-87 MG tumour xenograft, liver; intravenous, 24 h).
`Cc1cccc(Cn2nc(C3CC3)c3c(NC(=O)c4cnc5cc(OCCN6CCN(C)CC6)ccn45)cccc32)n1` — result for “all-cause adverse events”: 18.2% (CTCAE v4.03, measured: decreased appetite; platinum-resistant ovarian cancer patients; oral, dose not given, together with: pembrolizumab IV every 3 weeks).
For `NCCCC[C@@H]1NC(=O)[C@@H](Cc2c[nH]c3ccccc23)NC(=O)[C@H](c2ccccc2)NC(=O)[C@@H]2C[C@@H](OC(=O)NCCN)CN2C(=O)[C@H](Cc2ccccc2)NC(=O)[C@H](Cc2ccc(OCc3ccccc3)cc2)NC1=O`, “subjects with adverse event Dizziness” read 21% (healthy human volunteers; 1950 µg twice daily).
`CCN1[C@@H](C(=O)NC23CCC(C(=O)O)(CC2)CC3)[C@H](c2cccc(Cl)c2F)[C@]2(C(=O)Nc3cc(Cl)ccc32)C12CCCCC2` — result for “ALT elevation incidence”: 12.5% (patients with advanced solid tumours; oral, 150 mg).
For `CCOC(=O)C(CCCOC)NC(=O)c1ccc(C2CC2)c(Cc2ccc(F)cc2)n1` (stereo not shown), the kinetic solubility was 0.6 µg/mL (≈ 1.4 µM) (aqueous buffer with DMSO).
`COc1ccc2c(c1)NC(=O)CN2c1nc(C)nc2c1CCC2` — result for “cumulative urinary excretion”: 0.00134% (measured: unchanged compound; Sprague-Dawley rat, both sexes, urine; intravenous, 2 mg/kg).
`CC(=O)c1c(C)c2cnc(Nc3ccc(C4CCN(CCS(C)(=O)=O)CC4)cn3)nc2n(C2CCCC2)c1=O` has an AUC(0-t) of 1.32 µg·h/mL (beagle dog, female, fasted, blood; oral gavage, 15 mg/kg, acidified methylcellulose vehicle).

A few entries again:
`COc1ncccc1-c1cnn2ccc(N3CCN(C(=O)OC(C)C)CC3)nc12`: “free drug concentration” 0.062 µM (rat, thermal hyperalgesia model, plasma; oral, 30 mg/kg, 180 min).
`COC[C@@H](CC(C)C)NC(=O)c1ccc(C)c(C)c1` — result for “PCE to total erythrocyte ratio”: 0.522 (Hsd:ICR (CD-1) mouse, female, bone marrow; oral, 500 mg/kg, 24 h).
